# Results pooled from the literature.
# A part holds a random share of what one study measured.

# Study 1
# Target: Prothrombin, mature alpha-thrombin (F2, Homo sapiens, UniProt P00734)
# Technique: aptamer microarray, sandwich
# Molecule type: DNA with 2'F-ANA
# Medium: in vitro
# Concentration: 200 nM
# Setting: whole 15-mer aptamer, many near background
# Added: Cy3 exosite-II aptamer, 400 nM
# Reading: higher = stronger binding
# Strand: GGTTGGTGTGGTTGG
Modification,mean fluorescence intensity [a.u.]
2'F-ANA at 1 3 4 8 10 11 13,53.2
2'F-ANA at 4 5 6 7 9 10 13 14 15,92
2'F-ANA at 2 3 5 7 8 10 13 14,47.9
2'F-ANA at 1 4 6 10,71.9
2'F-ANA at 1 2 5 6 7 9 11 14 15,61.8
2'F-ANA at 1 3 8 9 13 14,97.8
2'F-ANA at 1 2 5 9 11 13,95.2

# Study 2
# Target: Ras GTPase-activating protein-binding protein 1, RRM domain (G3BP1, Homo sapiens, UniProt Q13283)
# UniProt Q13283, sequence (whole entry, looked up): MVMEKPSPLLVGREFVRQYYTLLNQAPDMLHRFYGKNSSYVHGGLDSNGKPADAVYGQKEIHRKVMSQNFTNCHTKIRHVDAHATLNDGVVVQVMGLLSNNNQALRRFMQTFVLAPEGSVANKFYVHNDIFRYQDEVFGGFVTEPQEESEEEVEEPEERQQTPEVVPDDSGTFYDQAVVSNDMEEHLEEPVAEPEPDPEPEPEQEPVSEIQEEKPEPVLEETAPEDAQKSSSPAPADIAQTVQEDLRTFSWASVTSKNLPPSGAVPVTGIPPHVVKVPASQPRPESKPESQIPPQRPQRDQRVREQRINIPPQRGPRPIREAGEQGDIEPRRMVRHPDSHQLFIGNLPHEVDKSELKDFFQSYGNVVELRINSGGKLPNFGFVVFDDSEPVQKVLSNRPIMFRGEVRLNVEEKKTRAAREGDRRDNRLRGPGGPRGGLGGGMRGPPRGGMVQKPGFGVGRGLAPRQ
# Technique: RNA Bind-n-Seq
# Molecule type: RNA
# Medium: in vitro
# Concentration: 1 µM
# Setting: whole 134-nt RNA, ends assumed
# Added: 150 mM KCl
# Baseline: input library
# Reading: higher = stronger binding
# Constant ends, left off below: GGGAGUUCUACAGUCCGACGAUC … UGGAAUUCUCGGGUGUCAAGG
Strand,log2 enrichment
CACAGACAACACGCGCCCACACAGACACAGAGGGAAGGGGUUGGGAUGGGGACAGGGUGCACAGCAGGGCGGGGUAGGACCCCAGCCCCU,0.175
UAACUUUAGAGGAGGAUCUGAUGGAUAUGGCAGUGAACGUGGAUUUGGGGAUGGCUAUAAUGGGUAUGGAGGAGGACCUGGAGGUGGCAA,-0.415
UGGCCCUGGUGGCAUGCGGGGAGGAAGAGGUGGCCUCAUGGAUCGUGGUGGUCCCGGUGGAAUGUUCAGAGGUGGCCGUGGUGGAGCCAG,1.49
CAAGUCCUGUGCUACACAUCGUAUGUACCGAAUCGGUUUGGAAAAAGGUUUUUGGAAAGUAUUAUGUUACGCCGUUCGGAUCUGCACUUC,-0.202
UGGCCCUGGUGGCAUGCGGGGAGGAAGAGGUGGCCUCAUGGAUCGUGGUGGUCCCGGUGGAAUGUUCAGAGGUGGCUGUGGUGGAGACAG,1.42

# Study 3
# Target: Phosphate system positive regulatory protein PHO4, full length, GST-tagged (PHO4, Saccharomyces cerevisiae, UniProt P07270, residues 1-312)
# Technique: competition protein-binding microarray
# Molecule type: double-stranded DNA, one strand shown
# Medium: in vitro
# Concentration: 2 µM
# Setting: whole 60-bp probe, lowest competitor level
# Added: Cbf1 competitor, 0.05 µM
# Reading: higher = stronger binding
# Target sequence (chain): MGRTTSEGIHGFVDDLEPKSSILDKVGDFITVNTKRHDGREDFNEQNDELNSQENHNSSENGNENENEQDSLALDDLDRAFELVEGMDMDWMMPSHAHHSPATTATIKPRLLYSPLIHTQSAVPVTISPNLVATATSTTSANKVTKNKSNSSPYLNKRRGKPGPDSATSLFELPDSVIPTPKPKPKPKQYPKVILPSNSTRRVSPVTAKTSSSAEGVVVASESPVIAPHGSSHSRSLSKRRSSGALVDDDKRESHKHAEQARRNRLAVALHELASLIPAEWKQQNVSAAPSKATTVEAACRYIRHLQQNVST
Strand,fluorescence intensity [a.u.]
CTTTCCCGATCTTGTCATGTGGGTGTAGCACATTTGGTCTTGATTCGCTTGACGCTGCTG,8760
CGCAGCGGCTGGCAGCATGTGCAGGATAATGATAAGGTCTTGATTCGCTTGACGCTGCTG,11700
CTAACGAAGGTTTTTCACGTGGTATACAAGCCAAGTGTCTTGATTCGCTTGACGCTGCTG,16200
GAAGGAGAGACTGTTCACATGCCTGAGGAAGATGACGTCTTGATTCGCTTGACGCTGCTG,7590

# Single results of other studies
Substance,target,assay,system,setting,how to read,measurement,value
"PhoQ, residues 284 288 289 292 302 303 DDMDFR","PhoP, residues 12 14 15 18 19 NFCKL (Escherichia coli, UniProt P23836)","Sort-seq, item: YFP reporter",E. coli,"PhoQ-PhoP variant library, added: 10 µM Mg2+","baseline: high Mg2+ state, higher = stronger signaling",fold induction,0.591

# Excerpt of the above (study 2):
Strand,log2 enrichment
UAACUUUAGAGGAGGAUCUGAUGGAUAUGGCAGUGAACGUGGAUUUGGGGAUGGCUAUAAUGGGUAUGGAGGAGGACCUGGAGGUGGCAA,-0.415
CACAGACAACACGCGCCCACACAGACACAGAGGGAAGGGGUUGGGAUGGGGACAGGGUGCACAGCAGGGCGGGGUAGGACCCCAGCCCCU,0.175
